Assay results from different studies.
A part holds a random share of what one study measured.

Series 1 — technique: RNA Bind-n-Seq; molecule type: RNA; sample: in vitro; concentration: 365 nM; relative to: no-protein control; direction: higher = stronger binding
Target: RNA binding protein fox-1 homolog 2, RRM domain, GST-SBP tag (RBFOX2, Homo sapiens, UniProt O43251-10, residues 100-194)
Setting: natural RNA segment, single round, ends assumed
Target sequence (chain): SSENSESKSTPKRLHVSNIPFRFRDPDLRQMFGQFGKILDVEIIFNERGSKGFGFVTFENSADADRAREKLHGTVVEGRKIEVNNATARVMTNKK
`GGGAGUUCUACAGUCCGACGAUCCCACCUUGGCCAGGCCUCCUCGGAGAAGCUUGUCCCCCGUGUGGGAGGGACGGAGCCGGACUGGACAUGGUCACUCAGUACCGCCUGCAGUGUCGCCAUGACUGAUCAUGUGGAAUUCUCGGGUGCCAA`: “RBNS enrichment (R)” 0.405.
For `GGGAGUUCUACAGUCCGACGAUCGAGCCAAGCCUGGUAGGAUUUGUCUUUAAAAGUAGCAAUAGUAAGAGAGGCAAGUCAAGGGAAAGAGAACAGUAGACAUGCCUCUCAUCAUUCUCUUGGUGUCUCUUUUUUGGAAUUCUCGGGUGCCAA`, “RBNS enrichment (R)” read 0.577.
`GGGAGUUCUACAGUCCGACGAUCAAAUUGGGCUGGAUUGUGCUUUGGUUAAUACAUCUUUCCCUAAAGAAGAUAAACACAAAAUCCAUUCCAGGUAGCUCGGCACCAACUAAGAAAAAAAGCACAAAGUUCUCUGGAAUUCUCGGGUGCCAA` — result for “RBNS enrichment (R)”: 0.241.
Under “RBNS enrichment (R)”, `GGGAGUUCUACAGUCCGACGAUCUUGAGGAGGGGCAGAAGCAGGGCCGGCAAAGGUUGUACCUUCAUAAGGUGGUAUGGGGGGUUGGGGUCAGGCCCUGAACAUCGUCCUACUUGAGAAUCUGUCAGGGGAAAUGGAAUUCUCGGGUGCCAA` is recorded as 2.01.
For `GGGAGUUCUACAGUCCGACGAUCACUUGAAAAGUGCUGGAGUAACAAAAUAUCUCAGUUGGACCAUCCUUAACUUGAUUGAACUGUCUAGGAACUUUACAGAUUGUUCUGCAGUUCUCUCUUCUUUUCCUCAGUGGAAUUCUCGGGUGCCAA`, “RBNS enrichment (R)” read 0.342.
For `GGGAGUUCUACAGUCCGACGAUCUUUGAUCAGCCUGCUAUCACGGUGUUCUGGCUCUCUUAUUUAGCCAGGCGCUUAAGGGACAGAUACAUCACAUCCUAAGUUUGGGAAAGGCCUUUGACCCAUGUCAUCUGUGGAAUUCUCGGGUGCCAA`, “RBNS enrichment (R)” read 0.309.
For `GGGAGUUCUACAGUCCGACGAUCGCCCCUCAUUGUUACUGCCUUGUGAGAUAAAAACUGAUUAAACCUUUGUGGCUGUGGUUGGCUGACAUGGGGUCUGUGUUUCACUAACUAACUAACUAACUGCAGGUGGUUGGAAUUCUCGGGUGCCAA`, “RBNS enrichment (R)” read 0.737.
`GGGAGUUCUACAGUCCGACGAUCCCUUAUUAUAUUGAUACUCUUCUUGAGGAGGAAAUCUCACCUUUUCUUUUUCAAGAGAUUCUGAGGCAGUCCCCACCCAAUCCAAAUAGGUAGCUGCUUGUGCAGGUCCUUGGAAUUCUCGGGUGCCAA` — result for “RBNS enrichment (R)”: 0.33.

Series 2 — technique: universal PBM; molecule type: double-stranded DNA, one strand shown; sample: in vitro; concentration: not given; direction: higher = stronger binding
Target: Sal-like protein 4, full length isoform B (SALL4, Homo sapiens, UniProt Q9UJQ4-2, residues 1-616)
Setting: 8-mer, flanks averaged, mean of replicates
The E-score of `ATAGGGAC` is reported as -0.0497.
The E-score of `TAAAGCGA` is reported as 0.108.
For `CCGACAAC`, the E-score was -0.151.
`AGTGTAGG` gave an E-score of 0.0775.
For `CGGAGCAG`, the E-score was -0.18.
With `ATACCTTG` the E-score was 0.171.
The E-score of `CCGGCTCC` is reported as -0.384.

Series 3 — technique: protein binding microarray; molecule type: double-stranded DNA, one strand shown; sample: in vitro; concentration: not given; relative to: not given; direction: higher = stronger binding
Target: Histone acetyltransferase KAT6A, winged helix 1, GST fusion (KAT6A, Homo sapiens, UniProt Q92794, residues 1-85)
Setting: 8-mer, flanks averaged, mean of 2 arrays, mostly near background
Residues (chain): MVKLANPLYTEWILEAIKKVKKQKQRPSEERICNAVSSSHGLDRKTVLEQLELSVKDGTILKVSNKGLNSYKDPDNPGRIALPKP
With `CCGGCCAC` the E-score was 0.122.
`AGACATTG` gave an E-score of 0.0467.
For `ATCGTGTA`, the E-score was -0.204.
For `GCCAATCC`, the E-score was -0.0471.
`AGCTTGAC` has an E-score of -0.102.
The E-score of `ATGGACGC` is reported as 0.143.
`AAGTTGCT` gave an E-score of -0.177.
The E-score of `GCGAAACC` is reported as 0.144.

Other studies, line by line
For `PhoQ, residues 284 288 289 292 302 303 DDMDFR`, the fold induction was 0.568 (PhoP, residues 12 14 15 18 19 LYHSL (Escherichia coli, UniProt P23836); Sort-seq, measured: YFP reporter; E. coli; PhoQ-PhoP variant library, together with: 10 µM Mg2+; relative to: high Mg2+ state, higher = stronger signaling).
